# Results from different studies.
# Lines come from different studies, so protocols differ. Several values in a cell are separate wells, animals, samples, runs or records. ± gives the spread as reported.
Compound,test system,conditions,scale,endpoint,result
CN[C@H]1CN(c2ccc3c(=O)c(C(=O)O)cn(-c4nccs4)c3n2)C[C@@H]1OC,"human patients, plasma","intravenous, 9 to 50 mg/m^2 twice weekly, day 4, cycle 1, mean, noncompartmental",,AUC(0-inf),17100 ng·h/mL
C=C(C)[C@@H]1CC[C@]2(NCCN3CCS(=O)(=O)CC3)CC[C@]3(C)[C@H](CC[C@@H]4[C@@]5(C)CC=C(C6=CC[C@@](CF)(C(=O)O)CC6)C(C)(C)[C@@H]5CC[C@]43C)[C@@H]12,"healthy human volunteers, plasma","oral, 200 mg, tablet, moderate-fat state, mean",,AUC(0-inf),44100 ng·h/mL
O=C(NC[C@H]1CN(c2ccc(N3CCOCC3=O)cc2)C(=O)O1)c1ccc(Cl)s1,"human, moderate renal impairment, plasma","oral, 10 mg, with: erythromycin at steady state","relative to: same subjects, compound alone",AUC(0-inf) increase,~71%
COc1cc(Nc2ncc3c(n2)-c2ccc(Cl)cc2C(c2c(F)cccc2OC)=NC3)ccc1C(=O)O,"human, plasma","oral, 50 mg single, fasted",,AUC(0-inf),26.2 µM·h
CC(C)(C)OC[C@@H]1C(=O)NCCN1C(=O)C[C@H](N)Cc1cc(F)c(F)cc1F,human,"5 mg once daily, day 10",,AUC(0-inf) at steady state,245 ± 41.8 ng·h/mL
CO[C@H]1C[C@@H]2CC[C@@H](C)[C@@](O)(O2)C(=O)C(=O)N2CCCC[C@H]2C(=O)O[C@H]([C@H](C)C[C@@H]2CC[C@@H](O)[C@H](OC)C2)CC(=O)[C@H](C)/C=C(\C)[C@@H](O)[C@@H](OC)C(=O)[C@H](C)C[C@H](C)/C=C/C=C/C=C/1C,"human, whole blood","oral, 30 mg, with: grapefruit juice",,AUC(0-inf),2420 ng·h/mL
CCCC[C@H](NC(C)=O)C(=O)N[C@H]1CCC(=O)NC[C@@H](C(=O)N[C@@H](Cc2c[nH]c3ccccc23)C(N)=O)NC(=O)[C@H](CCCNC(=N)N)NC(=O)[C@@H](Cc2ccccc2)NC(=O)[C@H](Cc2c[nH]cn2)NC1=O,"healthy human, both sexes, plasma","subcutaneous, 3.0 mg once daily, day 7, geometric mean",,AUC(0-inf),199 ng·h/mL
CC(C)[C@@H](CS(=O)(=O)C(C)C)N1C(=O)[C@@](C)(CC(=O)O)C[C@H](c2cccc(Cl)c2)[C@H]1c1ccc(Cl)cc1,"human, plasma","oral, 60 mg, new tablet fasted",,AUC(0-inf) geometric LS mean,2990 ng·h/mL
CC(C)NC[C@@H](C(=O)N1CCN(c2ncnc3c2[C@H](C)C[C@H]3O)CC1)c1ccc(Cl)cc1,"human, matched normal hepatic function (Child-Pugh), plasma","oral, 100 mg single, reference geometric mean, vs Moderate",,AUC(0-inf),309 ng·h/mL
Cc1ccc(NC(=O)c2ccc(CN3CCN(C)CC3)cc2)cc1Nc1nccc(-c2cncc(-c3oncc3C)c2)n1,"older healthy human adults, plasma","oral, 37.5 mg single dose, fed, mean",,AUC(0-inf),30900 ng·h/mL
CO[C@H]1C[C@@H]2CC[C@@H](C)[C@@](O)(O2)C(=O)C(=O)N2CCCC[C@H]2C(=O)O[C@H]([C@H](C)C[C@@H]2CC[C@@H](OCCO)[C@H](OC)C2)CC(=O)[C@H](C)/C=C(\C)[C@@H](O)[C@@H](OC)C(=O)[C@H](C)C[C@H](C)/C=C/C=C/C=C/1C,"healthy human adults, blood","dose not given, with: ritonavir-containing 3D regimen",relative to: with over without regimen,AUC(0-inf) ratio,27.1
COC(=O)c1ccc2c(c1)NC(=O)/C2=C(\Nc1ccc(N(C)C(=O)CN2CCN(C)CC2)cc1)c1ccccc1,"human, healthy, plasma","oral, 150 mg, with: rifampicin 600 mg",relative to: alone,AUC(0-inf) ratio,50.1%
C=CC(=O)Nc1cc(Nc2ncc(C(=O)OC(C)C)c(-c3cn(C)c4ccccc34)n2)c(OC)cc1N(C)CCN(C)C,"human, fasted","oral, 20 mg single dose, geometric mean",,AUC(0-inf),64 ng·h/mL
CCOc1c([C@H](C)n2nc(C)c3c(N)ncnc32)cc(Cl)c(F)c1[C@@H]1CNC(=O)C1,"healthy fasted humans, plasma","oral, 20 mg",,AUC(0-inf) geometric mean,14.6 µM·h
NS(=O)(=O)OC[C@@H]1C[C@@H](n2ccc3c(N[C@H]4CCc5ccccc54)ncnc32)C[C@@H]1O,human,"intravenous, 8 mg/m^2, with: itraconazole",relative to: with over without itraconazole,AUC(0-inf) ratio,123%
C[C@@H](Oc1cc(-c2cnn(C3CCNCC3)c2)cnc1N)c1c(Cl)ccc(F)c1Cl,healthy human,"oral, 250 mg, with: esomeprazole 40 mg daily 5 days",relative to: compound alone,AUC(0-inf) decrease,10% and ~10%

# A few entries again:
Compound,test system,conditions,scale,endpoint,result
CC(C)NC[C@@H](C(=O)N1CCN(c2ncnc3c2[C@H](C)C[C@H]3O)CC1)c1ccc(Cl)cc1,"human, matched normal hepatic function (Child-Pugh), plasma","oral, 100 mg single, reference geometric mean, vs Moderate",,AUC(0-inf),309 ng·h/mL
